Assay results from different studies.
Each numbered part is a random draw from the data of one study; scales do not carry over between parts. “And” joins repeats or separate records; there may be more than shown.
Chain of UniProt Q13705 (whole entry, looked up): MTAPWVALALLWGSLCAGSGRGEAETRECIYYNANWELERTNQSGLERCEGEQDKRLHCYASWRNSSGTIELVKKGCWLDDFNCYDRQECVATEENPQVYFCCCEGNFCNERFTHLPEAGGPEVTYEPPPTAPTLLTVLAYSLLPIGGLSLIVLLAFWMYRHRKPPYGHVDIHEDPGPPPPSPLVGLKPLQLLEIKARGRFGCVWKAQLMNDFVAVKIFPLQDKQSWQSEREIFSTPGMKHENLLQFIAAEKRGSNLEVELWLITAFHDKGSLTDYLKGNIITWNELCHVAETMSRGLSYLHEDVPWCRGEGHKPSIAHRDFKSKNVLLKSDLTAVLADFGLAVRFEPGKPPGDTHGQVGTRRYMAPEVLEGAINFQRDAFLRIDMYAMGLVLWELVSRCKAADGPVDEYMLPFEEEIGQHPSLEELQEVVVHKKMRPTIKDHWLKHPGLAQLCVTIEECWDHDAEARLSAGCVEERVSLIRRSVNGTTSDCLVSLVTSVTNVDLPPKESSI
Chain of UniProt Q9UQ88 (whole entry, looked up): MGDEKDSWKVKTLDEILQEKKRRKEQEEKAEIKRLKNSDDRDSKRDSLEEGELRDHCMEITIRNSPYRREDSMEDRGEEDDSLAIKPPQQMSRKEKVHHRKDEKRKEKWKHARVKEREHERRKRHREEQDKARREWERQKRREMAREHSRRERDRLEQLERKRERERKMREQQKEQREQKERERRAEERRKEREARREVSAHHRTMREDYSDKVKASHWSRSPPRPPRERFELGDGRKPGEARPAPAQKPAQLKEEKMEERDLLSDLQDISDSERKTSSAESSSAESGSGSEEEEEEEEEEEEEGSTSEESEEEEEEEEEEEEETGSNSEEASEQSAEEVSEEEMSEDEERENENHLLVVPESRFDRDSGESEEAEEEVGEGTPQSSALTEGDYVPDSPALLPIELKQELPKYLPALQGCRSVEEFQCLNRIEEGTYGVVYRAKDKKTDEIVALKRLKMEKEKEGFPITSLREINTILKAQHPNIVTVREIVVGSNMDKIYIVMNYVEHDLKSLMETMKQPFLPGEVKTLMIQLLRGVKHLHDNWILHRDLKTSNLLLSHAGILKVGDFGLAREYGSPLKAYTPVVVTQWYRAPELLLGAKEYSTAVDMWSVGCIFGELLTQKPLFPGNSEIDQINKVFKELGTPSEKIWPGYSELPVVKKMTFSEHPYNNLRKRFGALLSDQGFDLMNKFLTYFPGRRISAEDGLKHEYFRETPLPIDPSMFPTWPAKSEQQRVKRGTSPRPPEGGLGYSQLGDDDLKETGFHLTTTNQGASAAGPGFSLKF
Chain of UniProt Q9UBE8 (whole entry, looked up): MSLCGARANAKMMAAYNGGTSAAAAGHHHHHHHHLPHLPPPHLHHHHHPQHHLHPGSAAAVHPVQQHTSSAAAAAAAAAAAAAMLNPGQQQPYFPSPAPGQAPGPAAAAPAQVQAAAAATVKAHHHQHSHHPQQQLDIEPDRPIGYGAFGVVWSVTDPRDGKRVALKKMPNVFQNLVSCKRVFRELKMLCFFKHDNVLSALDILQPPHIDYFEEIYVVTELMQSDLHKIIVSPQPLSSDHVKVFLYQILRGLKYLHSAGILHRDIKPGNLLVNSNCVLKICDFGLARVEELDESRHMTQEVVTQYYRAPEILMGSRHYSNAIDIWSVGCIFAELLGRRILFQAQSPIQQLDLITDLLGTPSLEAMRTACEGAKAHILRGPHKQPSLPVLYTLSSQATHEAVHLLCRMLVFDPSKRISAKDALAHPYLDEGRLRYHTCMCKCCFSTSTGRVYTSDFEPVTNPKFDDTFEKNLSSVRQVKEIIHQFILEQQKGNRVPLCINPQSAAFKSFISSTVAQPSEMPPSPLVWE
Chain of UniProt P52333 (whole entry, looked up): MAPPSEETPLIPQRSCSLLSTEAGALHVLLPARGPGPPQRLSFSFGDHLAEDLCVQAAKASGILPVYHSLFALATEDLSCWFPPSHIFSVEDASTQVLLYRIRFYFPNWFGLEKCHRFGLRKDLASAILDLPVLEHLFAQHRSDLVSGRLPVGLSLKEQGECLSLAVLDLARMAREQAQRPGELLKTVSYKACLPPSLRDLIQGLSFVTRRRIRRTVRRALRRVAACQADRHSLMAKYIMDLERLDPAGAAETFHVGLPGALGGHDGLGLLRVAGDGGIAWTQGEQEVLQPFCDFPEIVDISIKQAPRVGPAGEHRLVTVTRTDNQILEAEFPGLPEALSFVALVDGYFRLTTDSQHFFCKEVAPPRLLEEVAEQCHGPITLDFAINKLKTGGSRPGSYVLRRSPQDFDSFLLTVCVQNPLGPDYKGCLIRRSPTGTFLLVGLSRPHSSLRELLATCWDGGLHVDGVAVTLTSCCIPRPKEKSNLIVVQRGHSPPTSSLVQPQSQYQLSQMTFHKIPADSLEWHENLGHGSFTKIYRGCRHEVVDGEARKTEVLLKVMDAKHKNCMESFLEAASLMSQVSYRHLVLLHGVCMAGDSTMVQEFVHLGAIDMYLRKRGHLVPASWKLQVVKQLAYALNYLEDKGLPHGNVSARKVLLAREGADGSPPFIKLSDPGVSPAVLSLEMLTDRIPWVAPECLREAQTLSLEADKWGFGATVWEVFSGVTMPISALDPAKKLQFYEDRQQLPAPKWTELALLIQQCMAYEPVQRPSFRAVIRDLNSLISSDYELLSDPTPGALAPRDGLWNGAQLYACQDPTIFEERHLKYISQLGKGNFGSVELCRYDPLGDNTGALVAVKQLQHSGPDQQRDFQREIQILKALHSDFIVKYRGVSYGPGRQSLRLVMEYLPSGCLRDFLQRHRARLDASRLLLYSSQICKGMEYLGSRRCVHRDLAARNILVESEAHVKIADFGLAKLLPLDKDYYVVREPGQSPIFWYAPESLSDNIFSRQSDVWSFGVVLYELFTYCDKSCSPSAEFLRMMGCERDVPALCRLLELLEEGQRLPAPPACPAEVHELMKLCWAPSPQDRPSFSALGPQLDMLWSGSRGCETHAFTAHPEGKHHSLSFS
Chain of UniProt Q9UM73 (whole entry, unmodified, looked up): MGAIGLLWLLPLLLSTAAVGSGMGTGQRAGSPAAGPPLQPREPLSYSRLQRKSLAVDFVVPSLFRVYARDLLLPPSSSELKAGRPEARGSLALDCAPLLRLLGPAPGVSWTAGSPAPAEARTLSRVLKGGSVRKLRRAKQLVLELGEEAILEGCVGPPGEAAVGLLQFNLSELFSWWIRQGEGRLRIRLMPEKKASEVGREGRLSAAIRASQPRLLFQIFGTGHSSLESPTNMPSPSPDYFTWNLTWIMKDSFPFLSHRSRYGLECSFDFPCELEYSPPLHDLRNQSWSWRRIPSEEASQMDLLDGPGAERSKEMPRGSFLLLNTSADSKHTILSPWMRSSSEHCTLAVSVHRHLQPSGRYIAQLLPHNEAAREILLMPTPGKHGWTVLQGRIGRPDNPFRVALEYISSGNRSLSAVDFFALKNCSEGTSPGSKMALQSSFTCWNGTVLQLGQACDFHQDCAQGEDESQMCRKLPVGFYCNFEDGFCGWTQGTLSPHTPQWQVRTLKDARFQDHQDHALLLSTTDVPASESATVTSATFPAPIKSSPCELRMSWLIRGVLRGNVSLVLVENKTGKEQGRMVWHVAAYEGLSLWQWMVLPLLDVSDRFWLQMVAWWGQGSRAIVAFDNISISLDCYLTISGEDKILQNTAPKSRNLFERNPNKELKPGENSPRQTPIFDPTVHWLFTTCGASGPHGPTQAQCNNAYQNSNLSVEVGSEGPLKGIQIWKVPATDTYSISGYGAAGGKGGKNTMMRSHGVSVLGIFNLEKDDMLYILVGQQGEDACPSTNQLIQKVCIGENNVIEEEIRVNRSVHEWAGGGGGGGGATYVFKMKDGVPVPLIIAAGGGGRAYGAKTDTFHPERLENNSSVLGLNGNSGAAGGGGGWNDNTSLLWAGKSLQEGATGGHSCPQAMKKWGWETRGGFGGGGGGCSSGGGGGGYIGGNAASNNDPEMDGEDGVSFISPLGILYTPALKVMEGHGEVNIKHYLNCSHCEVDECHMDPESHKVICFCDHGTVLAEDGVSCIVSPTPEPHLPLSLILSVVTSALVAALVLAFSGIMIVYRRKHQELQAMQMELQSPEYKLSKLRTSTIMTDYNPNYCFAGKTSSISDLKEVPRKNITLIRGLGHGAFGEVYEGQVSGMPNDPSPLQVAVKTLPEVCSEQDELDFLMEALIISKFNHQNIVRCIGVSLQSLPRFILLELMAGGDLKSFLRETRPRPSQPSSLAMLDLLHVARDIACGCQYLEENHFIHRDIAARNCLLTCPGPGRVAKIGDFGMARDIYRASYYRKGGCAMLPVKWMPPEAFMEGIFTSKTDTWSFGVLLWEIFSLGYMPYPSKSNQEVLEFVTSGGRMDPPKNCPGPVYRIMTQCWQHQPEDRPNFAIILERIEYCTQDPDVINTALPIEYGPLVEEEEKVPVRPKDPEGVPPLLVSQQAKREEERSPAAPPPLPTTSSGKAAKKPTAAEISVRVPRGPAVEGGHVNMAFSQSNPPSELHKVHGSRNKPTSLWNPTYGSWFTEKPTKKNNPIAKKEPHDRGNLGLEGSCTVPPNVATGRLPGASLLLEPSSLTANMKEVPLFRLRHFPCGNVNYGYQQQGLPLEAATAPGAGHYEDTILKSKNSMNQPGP

Block 1
Cell line: HaCaT
Concentration: 100 µM
Time: 36 h
Endpoint: viability
Compound = CO/N=C(\C(=O)N[C@@H]1C(=O)N2C(C(=O)O)=C(CSc3nc(=O)c(=O)[nH]n3C)CS[C@H]12)c1csc(N)n1; value = 110%
Compound = O=C(Nc1c(Cl)cncc1Cl)c1ccc(OC(F)F)c(OCC2CC2)c1; value = 70.2%
Compound = COc1cc(O)c(C(=O)Nc2nc(C(=O)NCCN(C(C)C)C(C)C)cs2)cc1OC; value = 93.1%

Block 2
SMILES: Cc1nc(Cc2cccc(C(F)(F)F)c2)sc1-c1ccc(C(N)=O)nc1
Technique: competition with immobilised ligand
Concentration: 1 µM
Endpoint: remaining binding
target = cGMP-dependent protein kinase 2 (PRKG2, Homo sapiens, UniProt Q13237); assay = cell-free assay; value = 84%
target = Cyclin-dependent kinase 4, with cyclin D3 (CDK4, Homo sapiens, UniProt P11802); assay = cell-free assay; value = 90%
target = Activin receptor type-2B (ACVR2B, Homo sapiens, UniProt Q13705); assay = binding; value = 86%
target = Calcium/calmodulin-dependent protein kinase type II subunit delta (CAMK2D, Homo sapiens, UniProt Q13557); assay = cell-free assay; value = 100%
target = ALK tyrosine kinase receptor (ALK, Homo sapiens, UniProt Q9UM73, C1156Y); assay = cell-free assay; value = 68%
target = Casein kinase I isoform epsilon (CSNK1E, Homo sapiens, UniProt P49674); assay = cell-free assay; value = 100%
target = Serine/threonine-protein kinase Sgk2 (SGK2, Homo sapiens, UniProt Q9HBY8); assay = cell-free assay; value = 95%
target = Serine/threonine-protein kinase DCLK2 (DCLK2, Homo sapiens, UniProt Q8N568); assay = cell-free assay; value = 100%
target = Myosin-IIIb (MYO3B, Homo sapiens, UniProt Q8WXR4); assay = binding; value = 100%
target = Mast/stem cell growth factor receptor Kit (KIT, Homo sapiens, UniProt P10721, D816H); assay = cell-free assay; value = 100%
target = Serine/threonine-protein kinase RIO3 (RIOK3, Homo sapiens, UniProt O14730); assay = cell-free assay; value = 100%
target = Rho-associated protein kinase 2 (ROCK2, Homo sapiens, UniProt O75116); assay = cell-free assay; value = 59%
target = Interleukin-1 receptor-associated kinase 3 (IRAK3, Homo sapiens, UniProt Q9Y616); assay = cell-free assay; value = 100%
target = Vascular endothelial growth factor receptor 2 (KDR, Homo sapiens, UniProt P35968); assay = cell-free assay; value = 86%
target = Tyrosine-protein kinase JAK3, JH1 (JAK3, Homo sapiens, UniProt P52333); assay = cell-free assay; value = 100%
target = Cyclin-dependent kinase 11A (CDK11A, Homo sapiens, UniProt Q9UQ88); assay = binding; value = 92%
target = Receptor-type tyrosine-protein kinase FLT3 (FLT3, Homo sapiens, UniProt P36888, D835Y); assay = cell-free assay; value = 92%
target = Calcium/calmodulin-dependent protein kinase type IV (CAMK4, Homo sapiens, UniProt Q16566); assay = cell-free assay; value = 100%
target = Calcium/calmodulin-dependent protein kinase kinase 2 (CAMKK2, Homo sapiens, UniProt Q96RR4); assay = cell-free assay; value = 91%
target = Inhibitor of nuclear factor kappa-B kinase subunit epsilon (IKBKE, Homo sapiens, UniProt Q14164); assay = cell-free assay; value = 76%
target = Serine/threonine-protein kinase NLK (NLK, Homo sapiens, UniProt Q9UBE8); assay = binding; value = 100%
target = Cyclin-dependent kinase 14 (CDK14, Homo sapiens, UniProt O94921); assay = cell-free assay; value = 100%
target = Epidermal growth factor receptor (EGFR, Homo sapiens, UniProt P00533, A750P/del747-749); assay = cell-free assay; value = 100%
target = Tyrosine-protein kinase Fer (FER, Homo sapiens, UniProt P16591); assay = cell-free assay; value = 100%

Block 3
Organism: Sarcocystis neurona
Read-out: parasite growth
Concentration: 10 µM
Setting: secondary screen
Endpoint: inhibition
Compound = OC(c1cc(C(F)(F)F)nc2c(C(F)(F)F)cccc12)C1CCCCN1 (stereo not drawn); value = 0.9%
Compound = CN(C)CCCN1c2ccccc2Sc2ccc(Cl)cc21; value = 48.9%
Compound = CCOC(=O)C1=C(C)NC(C)=C(C(=O)OC)C1c1cccc(Cl)c1Cl (stereo not drawn); value = -40.5%

Block 4
Target: Centromere-binding protein 1, full length, His-tagged (CBF1, Saccharomyces cerevisiae, UniProt P17106, residues 1-351)
Chain of UniProt P17106 (whole entry, looked up): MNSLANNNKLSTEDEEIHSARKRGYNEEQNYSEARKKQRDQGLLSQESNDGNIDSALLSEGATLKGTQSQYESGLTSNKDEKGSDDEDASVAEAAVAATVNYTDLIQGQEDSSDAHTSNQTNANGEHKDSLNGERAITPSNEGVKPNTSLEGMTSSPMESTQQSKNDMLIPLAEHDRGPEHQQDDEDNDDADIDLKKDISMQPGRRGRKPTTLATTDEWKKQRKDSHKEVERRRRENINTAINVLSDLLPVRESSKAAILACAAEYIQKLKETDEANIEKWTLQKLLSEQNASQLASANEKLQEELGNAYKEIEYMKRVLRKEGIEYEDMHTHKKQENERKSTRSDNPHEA
Technique: competition protein-binding microarray
Form: double-stranded DNA, one strand shown
Medium: in vitro
Concentration: 2 µM
Setting: whole 60-bp probe, lowest competitor level
With: Pho4 competitor, 0.05 µM
Direction: higher = stronger binding
Endpoint: fluorescence intensity
All sequences stand within: … GTCTTGATTCGCTTGACGCTGCTG
Sequence = CTTTCCCGATCTTGGACCGTGGGTGTAGCACATTTG; value = 52.4 a.u.
Sequence = TGCGCAACAACTTGCCCGGTGGGTGTATGTCTAGAA; value = 63.4 a.u.
Sequence = TCTAGGGATGAGCTGAACGTGCAAATGATACCAACC; value = 91.5 a.u.
Sequence = TATCTCGCTCACCATCACGGCCGCCGCCATTCCCGA; value = 50.5 a.u.
Sequence = CTTCTGTAAATTTGTAAGGTGGGTGGACGCGCCCCG; value = 83.1 a.u.
Sequence = AGCGTAATCTATACCCACGTAAACCCATTGAGATAA; value = 65.6 a.u.
Sequence = TGAACGAAAGACCTGCGCATGACAACAAATTTACCG; value = 188 a.u.
Sequence = TGTCTCCACAGTACCAACGTGCGATATCTGCTTCTC; value = 89.7 a.u.

Block 5
Compound: COc1ccc2[nH]c3c4[nH]c5ccc(OC)cc5c4c4c(c3c2c1)C(=O)NC4=O
Read-out: binding
Concentration: 1 µM
Endpoint: remaining binding
target = Activin receptor type-2B (ACVR2B, Homo sapiens, UniProt Q13705); assay = competition with immobilised ligand; value = 44%
target = Proto-oncogene tyrosine-protein kinase ROS (ROS1, Homo sapiens, UniProt P08922); value = 24%
target = Receptor-type tyrosine-protein kinase FLT3, autoinhibited (FLT3, Homo sapiens, UniProt P36888); value = 53%

Block 6
Species: human
Medium: microsomes or S9
Concentration: 2 µM
Time: 0.5 h
Endpoint: remaining compound
Structure (SMILES) = c1ccc(-c2nnc(CNCCN3CCOCC3)o2)cc1; value = 95.9%
Structure (SMILES) = COC(=O)c1ccc2nc(Nc3nc4ccc(F)cc4s3)sc2c1; value = 2.95%
Structure (SMILES) = COc1cnc(C(=O)N2CCCC23CCOC3)nc1 (stereo not drawn); value = > 100%

Block 7
Compound: CC(=O)N[C@@H](Cc1c[nH]c2ccccc12)C(=O)N[C@@H](CCC(=O)C=[N+]=[N-])C(=O)OC(C)C
Medium: EL4 tumour
Dose: dose not given
Relative to: vehicle
Endpoint: log2 fold change
assay = measured: thiamin monophosphate; system = Mus musculus; value = 1.09
assay = measured: gamma-glutamylphenylalanine; system = mouse, EL4 tumour-bearing; value = -0.256
assay = measured: hippurate; system = mouse, EL4 tumour-bearing; value = 1.06

Single results of other studies
Structure (SMILES) = CC(C)C[C@@H]1NC(=O)[C@H](C(C)C)NC(=O)[C@H](C)NC(=O)[C@H](CC(C)C)NC(=O)[C@H](C(C)C)NC(=O)[C@H](CC(C)C)NC(=O)[C@@H](CC(C)C)NC1=O; assay = PRP chromatography; setting = linear fit, 1 mL; endpoint = logD 1,9-decadiene/water; value = 0.0587 log units
Structure (SMILES) = CC(C)(C)c1cnc(CSc2cnc(NC(=O)C3CCN(CCCCSc4cccc5c4C(=O)N(C4CCC(=O)NC4=O)C5=O)CC3)s2)o1 (stereo not drawn); tested on = HH; assay = CCK-8; setting = 1 nM; endpoint = viability; value = 99.6%
Structure (SMILES) = CN(C(=O)c1ccn2ncc(-c3ccc(C(N)=O)cc3)c2c1)c1ccc(C#N)cn1; system = C57BL/6 IFN-γ knockout mouse, female, plasma; setting = oral, 10 mg/kg, 1 h; endpoint = plasma concentration; value = 800 nM
Structure (SMILES) = Ic1ccc(Nc2nc(NCCN3CCOCC3)nc(N3CCOCC3)n2)cc1; tested on = HEK293T ATF4-firefly luciferase reporter; assay = integrated stress response, measured: ATF4; setting = 10 µM, without ISRIB; scale = relative to: DMSO; endpoint = reporter signal; value = 182% and 171% and 145% and 165%
Structure (SMILES) = CC(C)n1cnc(-c2ccc(F)cc2)c1-c1ncc(C(=O)Nc2ccc(N3CCN(C)CC3)cc2)[nH]1; system = IPF patients; setting = 30 mg once daily, adverse event incidence; endpoint = bile acids increased; value = 0%
Structure (SMILES) = O=C(COc1ccccc1P(=O)(O)O)NCC(F)(F)c1cccc(F)c1; tested on = INS-1; setting = concentration not given, high glucose; endpoint = ATP/ADP ratio; value = 5.11 and 5.25
Structure (SMILES) = CC(C)C[C@@H]1NC(=O)[C@H](CCC(=O)N2CCCC2)NC(=O)[C@H](CC(C)C)NC(=O)[C@@H](CCC(=O)N2CCCC2)NC(=O)[C@H](CC(C)C)NC(=O)[C@@H](CC(C)C)NC(=O)[C@H](CC(C)C)NC1=O; assay = PRP chromatography; setting = linear fit, 1 mL; endpoint = logD 1,9-decadiene/water; value = -0.358 log units
